Results collected from several papers.
Each line is one published result; not all experiments were run side by side.
CA9: Carbonic anhydrase 9 (CA9, Homo sapiens, UniProt Q16790)
MTNR1A: Melatonin receptor type 1A (MTNR1A, Homo sapiens, UniProt P48039)
UniProt P48039, sequence (whole entry, looked up): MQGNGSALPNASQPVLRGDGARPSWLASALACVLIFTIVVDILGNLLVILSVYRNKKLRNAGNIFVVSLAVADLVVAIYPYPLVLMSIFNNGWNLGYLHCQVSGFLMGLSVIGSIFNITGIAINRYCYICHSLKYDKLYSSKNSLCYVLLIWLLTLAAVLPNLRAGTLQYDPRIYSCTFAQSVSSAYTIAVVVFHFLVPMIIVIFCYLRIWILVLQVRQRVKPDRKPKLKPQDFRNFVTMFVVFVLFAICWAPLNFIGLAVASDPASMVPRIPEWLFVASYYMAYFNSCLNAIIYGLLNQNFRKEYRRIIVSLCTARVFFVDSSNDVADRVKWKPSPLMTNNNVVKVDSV
CSNK1D: Casein kinase I isoform delta (CSNK1D, Homo sapiens, UniProt P48730)
UniProt P48730, sequence (whole entry, looked up): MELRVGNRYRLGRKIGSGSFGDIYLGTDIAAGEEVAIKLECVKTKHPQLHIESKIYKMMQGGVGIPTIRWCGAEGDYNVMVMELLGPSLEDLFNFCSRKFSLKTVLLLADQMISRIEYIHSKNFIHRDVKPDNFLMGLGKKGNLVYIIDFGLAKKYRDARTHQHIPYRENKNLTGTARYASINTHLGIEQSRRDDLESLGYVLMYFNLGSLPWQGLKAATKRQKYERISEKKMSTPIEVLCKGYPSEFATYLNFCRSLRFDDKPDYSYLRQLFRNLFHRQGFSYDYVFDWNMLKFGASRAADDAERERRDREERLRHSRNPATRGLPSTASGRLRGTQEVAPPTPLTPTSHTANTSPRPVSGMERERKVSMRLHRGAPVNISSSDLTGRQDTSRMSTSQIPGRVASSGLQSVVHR
CSNK1A1: Casein kinase I isoform alpha (CSNK1A1, Homo sapiens, UniProt P48729)
UniProt P48729, sequence (whole entry, looked up): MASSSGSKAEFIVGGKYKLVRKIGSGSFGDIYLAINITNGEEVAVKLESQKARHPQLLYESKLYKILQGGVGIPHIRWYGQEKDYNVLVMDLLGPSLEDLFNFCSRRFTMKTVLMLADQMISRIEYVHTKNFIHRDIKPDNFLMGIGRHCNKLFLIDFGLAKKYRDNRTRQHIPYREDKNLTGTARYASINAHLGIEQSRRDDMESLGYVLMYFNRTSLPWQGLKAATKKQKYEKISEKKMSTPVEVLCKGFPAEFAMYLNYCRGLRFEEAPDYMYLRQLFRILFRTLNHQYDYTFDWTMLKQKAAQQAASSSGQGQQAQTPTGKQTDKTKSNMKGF
UniProt P35368, sequence (whole entry, looked up): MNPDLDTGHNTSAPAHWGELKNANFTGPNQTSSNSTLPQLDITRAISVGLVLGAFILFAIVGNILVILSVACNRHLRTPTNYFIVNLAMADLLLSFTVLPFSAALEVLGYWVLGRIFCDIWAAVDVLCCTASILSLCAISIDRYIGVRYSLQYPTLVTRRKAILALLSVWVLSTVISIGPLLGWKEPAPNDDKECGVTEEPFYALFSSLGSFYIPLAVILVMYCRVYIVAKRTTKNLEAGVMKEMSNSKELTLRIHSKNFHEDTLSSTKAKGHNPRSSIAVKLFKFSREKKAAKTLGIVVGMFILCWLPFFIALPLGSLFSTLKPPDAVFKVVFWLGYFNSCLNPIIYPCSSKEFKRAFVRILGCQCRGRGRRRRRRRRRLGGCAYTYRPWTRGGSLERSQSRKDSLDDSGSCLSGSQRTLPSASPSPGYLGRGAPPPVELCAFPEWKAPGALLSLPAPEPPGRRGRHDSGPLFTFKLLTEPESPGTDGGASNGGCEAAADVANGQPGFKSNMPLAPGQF
UniProt P30542, sequence (whole entry, looked up): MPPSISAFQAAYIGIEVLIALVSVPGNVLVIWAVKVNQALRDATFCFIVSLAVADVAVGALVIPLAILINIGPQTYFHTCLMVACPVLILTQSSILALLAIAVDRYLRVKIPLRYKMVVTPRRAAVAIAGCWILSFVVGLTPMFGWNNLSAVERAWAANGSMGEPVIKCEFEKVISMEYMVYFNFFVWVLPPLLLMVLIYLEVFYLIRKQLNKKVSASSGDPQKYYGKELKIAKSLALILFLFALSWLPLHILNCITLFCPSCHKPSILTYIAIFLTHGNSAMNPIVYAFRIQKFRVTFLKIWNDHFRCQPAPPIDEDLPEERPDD
UniProt P0DMS8, sequence (whole entry, unmodified, looked up): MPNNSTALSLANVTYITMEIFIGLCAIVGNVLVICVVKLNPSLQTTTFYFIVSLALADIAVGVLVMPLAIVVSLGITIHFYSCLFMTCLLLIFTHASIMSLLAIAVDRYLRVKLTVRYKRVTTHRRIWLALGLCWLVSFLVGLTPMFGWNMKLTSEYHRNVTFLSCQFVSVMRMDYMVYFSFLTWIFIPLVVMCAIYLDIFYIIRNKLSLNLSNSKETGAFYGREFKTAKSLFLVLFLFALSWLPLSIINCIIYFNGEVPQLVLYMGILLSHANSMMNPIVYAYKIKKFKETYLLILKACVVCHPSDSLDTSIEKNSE

| Structure (SMILES) | target | effect on | mode | technique | measurement | value |
| --- | --- | --- | --- | --- | --- | --- |
| Cc1ccc(S(N)(=O)=O)cc1C(=O)Nc1ccc(NC(=O)NCc2ccco2)cc1 | CA9 | enzyme activity | inhibitor |  | IC50 | 0.097 µM |
| CN(C)c1ncnc2c1ncn2[C@@H]1O[C@H](CO)[C@@H](O)[C@H]1O | ADORA3 (Homo sapiens, UniProt P0DMS8, I253N) | G protein activation | agonist |  | EC50 | 15 µM |
| COc1ccc(CN(C(=O)C2CC(F)(F)C2)c2ccncc2)cc1 | MTNR1A | cAMP | agonist | luciferase | EC50 | 0.0288 µM |
| CNC(=O)c1ccc(-n2nc(C(=O)Nc3ccc(S(N)(=O)=O)cc3)cc2-c2ccco2)cc1 | CA9 | enzyme activity | inhibitor |  | IC50 | 0.01 µM |
| CC(=O)c1cccc(N(C)CCc2cnccn2)n1 | MTNR1A | cAMP | agonist | luciferase | EC50 | 0.378 µM |
| Cn1cc(-c2ccc(Cn3c(C(=O)Nc4ccc(S(N)(=O)=O)cc4)cc4sccc43)cc2)nn1 | CA9 | enzyme activity | inhibitor |  | IC50 | 0.00115 µM |
| N#C[C@@]12C[C@@H]1[C@@H](n1cnc3c(N[C@@H](C4CCC4)C4CC4)nc(I)nc31)[C@H](O)[C@@H]2O | ADORA1 (Homo sapiens, UniProt P30542) | ligand displacement |  | radioligand | Ki | > 10 µM |
| Cn1cc(-c2ccc3oc(C(=O)NC4CCCN(CC(=O)Nc5ccc(S(N)(=O)=O)cc5)C4)cc3c2)nn1 (stereo not drawn) | CA9 | enzyme activity | inhibitor |  | IC50 | 0.0331 µM |
| COc1ccc(-c2oc3ncnc(NCCCN4CCOCC4)c3c2-c2ccc(OC)cc2)cc1 | CSNK1D | binding |  | SPR | Kd | > 50 µM |
| COc1ccc(F)cc1CNc1cccc2c1oc(=O)n2C | MTNR1A | cAMP | agonist | luciferase | EC50 | 0.621 µM |
| c1ccc(Nc2nc3c(s2)Cc2ccccc2-3)cc1 | CSNK1A1 | binding |  | SPR | Kd | > 50 µM |
| Cc1cc(Oc2ncccc2CN2CCN(c3ccc(Br)cc3)CC2)ccc1-c1c(C)c(=O)[nH]c(=O)n1C | ADRA1B (Homo sapiens, UniProt P35368) | ligand displacement |  | radioligand | Ki | 3.03 µM |
| COC(=O)c1ccc(N)cc1Cl | CSNK1D | binding |  | SPR | Kd | > 50 µM |
| Cc1cc(N2CCCC2)ccc1NC(=O)COC(=O)c1cc(S(N)(=O)=O)ccc1O | CA9 | enzyme activity | inhibitor |  | IC50 | 0.746 µM |
| CCN1CCc2c(sc(NC(=O)c3ccc(OC)cc3OC)c2C(N)=O)C1 | CSNK1D | binding |  | SPR | Kd | > 50 µM |
| FC(F)(F)c1cscc1CNc1cccc(-c2nnc[nH]2)c1 | MTNR1A | cAMP | agonist | luciferase | EC50 | 0.162 µM |
| O=c1[nH]c(=O)c2c[nH]nc2[nH]1 | CSNK1A1 | binding |  | SPR | Kd | > 50 µM |
| COc1cccc2c1CCN(C(=O)C1(C(N)=O)CC1)C2 | MTNR1A | cAMP | agonist | luciferase | EC50 | 0.292 µM |
| OCc1cccc2ccncc12 | CSNK1D | binding |  | SPR | Kd | > 50 µM |
| CN(C)C(=O)c1ccc(NC(=O)c2cc(S(N)(=O)=O)ccc2N2CCOCC2)cc1 | CA9 | enzyme activity | inhibitor |  | IC50 | 0.084 µM |
| NC(=O)c1ccc(N)cc1Cl | CSNK1A1 | binding |  | SPR | Kd | > 50 µM |
| CC(=O)Nc1ccc(C(=O)N2CCN(CC(=O)c3cc(C)n(-c4ccc(S(N)(=O)=O)cc4)c3C)CC2)cc1F | CA9 | enzyme activity | inhibitor |  | IC50 | 0.0513 µM |
| CN(Cc1cccc(O)c1)C(=O)c1cccc(OCC(F)(F)F)c1 | MTNR1A | cAMP | agonist | luciferase | EC50 | 0.0438 µM |
| COCc1n[nH]c(N)c1-c1ccc(Cl)cc1 | CSNK1A1 | binding |  | SPR | Kd | > 50 µM |
